Assay results from different studies.
Lines come from different studies, so protocols differ. ± gives the spread as reported.

Compound | assay | test system | conditions | Tmax
O=C(CCc1ccc(CNC(C(=O)O)C2CCCCC2)cn1)NO (stereo not shown) | – | human, plasma | oral, 40 mg, multiple doses, once daily, patients | 1.12 h
N=C(N)NCCC[C@@H]1NC(=O)[C@H](Cc2c[nH]c3ccccc23)NC(=O)[C@@H](CC2CCCCC2)NC(=O)[C@@H]2CCCN2C(=O)[C@@H](NC(=O)CCc2ccccc2)CCCNC1=O | – | C57BL/6J mice, spinal cord | subcutaneous, 1 mg/kg | 0.765 h
Cc1ccc(OCC(=O)O)cc1 | – | Sprague-Dawley rat, male, plasma | oral gavage, 10 mg/kg of parent drug | 0.63 h
O=C([O][Ti+2][O]C(=O)c1ccc(P(c2ccccc2)c2ccccc2)cc1)c1ccc(P(c2ccccc2)c2ccccc2)cc1.[Cl][Au].[Cl][Au].c1cc[cH-]c1.c1cc[cH-]c1 | ICP-MS, measured: gold | NOD.CB17-Prkdc scid/J mice, blood or plasma | 7.5 mg/kg, after first injection | 2.2 h
CC=C1C(OC2OC(CO)C(O)C(O)C2O)OC=C(C(=O)OC)C1CC(=O)OCC1OC(OCCc2ccc(O)cc2)C(O)C(O)C1O (stereo not shown) | – | Balb/c mice, plasma | oral, 109.2 mg/kg | 0.167 h
CC(C)(C)NCC(SS(=O)(=O)O)c1ccccc1 (stereo not shown) | – | female Swiss Webster mice, plasma | oral, 100 mg/kg | 0.5 h
CC(=O)N[C@H](CC(=O)O)C(=O)N[C@H](Cc1c[nH]c2ccccc12)C(=O)N[C@H](Cc1ccccc1)C(=O)N[C@H](CCCCN)C(=O)N[C@H](C)C(=O)N[C@H](Cc1ccccc1)C(=O)N[C@H](Cc1ccc(O)cc1)C(=O)N[C@H](CC(=O)O)C(=O)N[C@H](CCCCN)C(=O)N[C@@H](C(=O)N[C@H](C)C(=O)N[C@H](CCC(=O)O)C(=O)N[C@H](CCCCN)C(=O)N[C@H](Cc1ccccc1)C(=O)N[C@H](CCCCN)C(=O)N[C@H](CCC(=O)O)C(=O)N[C@H](C)C(=O)N[C@H](Cc1ccccc1)C(N)=O)C(C)C | – | statin-treated high-risk CHD patients, plasma | oral, 13 daily doses, censored population | 1.3 to 2.4 h
CN1CCC[C@]1(C)/C=C/S(=O)(=O)NC(=O)Nc1c2c(cc3c1CCC3)CCC2 | – | human, plasma | oral, 250 mg, single dose | 1 h
COc1cc(C)c(Cc2ccc(O)cc2)cc1[C@@H]1S[C@H](CO)[C@@H](O)[C@H](O)[C@H]1O | – | Japanese T2DM patients, plasma | 5 mg luseogliflozin, day 1, once daily | 5.86 ± 3.08 h
CC(C)C[C@@H](NC(=O)[C@H](NC(=O)[C@H]1CCCN1)[C@H](C)O)C(=O)N[C@H](Cc1c[nH]cn1)C(=O)N[C@@H](C(=O)N[C@H](Cc1c[nH]cn1)C(=O)N[C@H](CC(N)=O)C(=O)N[C@H](CCCNC(=N)N)C(=O)N[C@H](CCCNC(=N)N)C(=O)N[C@H](CCCNC(=N)N)C(=O)N[C@H](CCCNC(=N)N)C(=O)N[C@H](CCCNC(=N)N)C(N)=O)[C@H](C)O | – | beagle dog, plasma | oral, 50 mg/kg, single dose | 2.7 h
CC(C)(Sc1cc[n+]([O-])cc1-c1ccc(C#N)c2ccccc12)C(=O)OC1OC(C(=O)O)C(O)C(O)C1O (stereo not shown) | – | plasma | oral, 15 mg, severe renal impairment, fasted | 3 h
N#Cc1ccc(-c2cc(=O)c3ccc4[nH]c(C(F)(F)F)nc4c3o2)cc1 | – | 5xFAD mice, 2 months old, brain | oral gavage, 10 mg/kg | 0.5 h
CC(C)(C)N/C=C(/c1ccccc1)S(=O)(=O)O | – | female Swiss Webster mice, plasma | oral, 100 mg/kg | 2 h
CC12CC(c3ccc(S(C)(=O)=O)cc3)C3=C4CCC(=O)C=C4CCC3C1CCC2(O)C(F)(F)C(F)(F)F (stereo not shown) | – | human, plasma | intravenous, 15.7 µg, infusion | 0.483 h
O=C(CCc1ccc(CNC(C(=O)OC2CCCC2)C2CCCCC2)cn1)NO (stereo not shown) | – | human, plasma | oral, 20 mg, multiple doses, once daily, patients | 0.625 h
CC(C)(O)c1ncc([S@](N)(=O)=NC(=O)Nc2c3c(cc4c2CCC4)CCC3)s1 | – | human, plasma | oral, 100 mg, single dose, fed, healthy volunteers | 5 h
CN(C)CCNC(=O)/C=C/[C@H](Cc1ccccc1)Nc1ccnc2cc(Cl)ccc12 | – | ICR mice, healthy, plasma | oral, 5 mg/kg | 2 h
NS(=O)(=O)c1ccc(N2N=C(C(F)(F)F)CC2c2ccc(F)cc2F)cc1 (stereo not shown) | – | beagle dog, plasma | oral, 1 mg/kg, single dose | 6 h
[2H]C([2H])([2H])NC(=O)c1ccc(N2C(=S)N(c3ccc(C#N)c(C(F)(F)F)c3)C(=O)C2(C)C)cc1F | – | male human, plasma | oral, 40 mg, single dose, fasted | 1 h

Some of these lines once more:
Compound | assay | test system | conditions | Tmax
CC(C)C[C@@H](NC(=O)[C@H](NC(=O)[C@H]1CCCN1)[C@H](C)O)C(=O)N[C@H](Cc1c[nH]cn1)C(=O)N[C@@H](C(=O)N[C@H](Cc1c[nH]cn1)C(=O)N[C@H](CC(N)=O)C(=O)N[C@H](CCCNC(=N)N)C(=O)N[C@H](CCCNC(=N)N)C(=O)N[C@H](CCCNC(=N)N)C(=O)N[C@H](CCCNC(=N)N)C(=O)N[C@H](CCCNC(=N)N)C(N)=O)[C@H](C)O | – | beagle dog, plasma | oral, 50 mg/kg, single dose | 2.7 h
Cc1ccc(OCC(=O)O)cc1 | – | Sprague-Dawley rat, male, plasma | oral gavage, 10 mg/kg of parent drug | 0.63 h
O=C(CCc1ccc(CNC(C(=O)OC2CCCC2)C2CCCCC2)cn1)NO (stereo not shown) | – | human, plasma | oral, 20 mg, multiple doses, once daily, patients | 0.625 h
